Published values gathered from unrelated publications.
Numbered parts are unrelated; each lists some results of a single study.

Series 1
Target: Histone acetyltransferase KAT6A, winged helix 1, GST fusion (KAT6A, Homo sapiens, UniProt Q92794, residues 1-85)
Technique: protein binding microarray
Form: double-stranded DNA, one strand shown
Medium: in vitro
Concentration: not given
Setting: 8-mer, flanks averaged, mean of 2 arrays, mostly near background
Baseline: not given
Direction: higher = stronger binding
Endpoint: E-score
Construct (chain): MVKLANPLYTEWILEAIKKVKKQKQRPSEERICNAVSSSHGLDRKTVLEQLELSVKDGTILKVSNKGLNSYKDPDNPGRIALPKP
GCCACACC: -0.0415
ACTTAGGC: -0.158
AGCTGGGC: -0.126
CTACCAGA: -0.199

Series 2
Target: Sal-like protein 4, full length isoform A (SALL4, Homo sapiens, UniProt Q9UJQ4, residues 1-1053)
Sequence of UniProt Q9UJQ4 (whole entry, looked up): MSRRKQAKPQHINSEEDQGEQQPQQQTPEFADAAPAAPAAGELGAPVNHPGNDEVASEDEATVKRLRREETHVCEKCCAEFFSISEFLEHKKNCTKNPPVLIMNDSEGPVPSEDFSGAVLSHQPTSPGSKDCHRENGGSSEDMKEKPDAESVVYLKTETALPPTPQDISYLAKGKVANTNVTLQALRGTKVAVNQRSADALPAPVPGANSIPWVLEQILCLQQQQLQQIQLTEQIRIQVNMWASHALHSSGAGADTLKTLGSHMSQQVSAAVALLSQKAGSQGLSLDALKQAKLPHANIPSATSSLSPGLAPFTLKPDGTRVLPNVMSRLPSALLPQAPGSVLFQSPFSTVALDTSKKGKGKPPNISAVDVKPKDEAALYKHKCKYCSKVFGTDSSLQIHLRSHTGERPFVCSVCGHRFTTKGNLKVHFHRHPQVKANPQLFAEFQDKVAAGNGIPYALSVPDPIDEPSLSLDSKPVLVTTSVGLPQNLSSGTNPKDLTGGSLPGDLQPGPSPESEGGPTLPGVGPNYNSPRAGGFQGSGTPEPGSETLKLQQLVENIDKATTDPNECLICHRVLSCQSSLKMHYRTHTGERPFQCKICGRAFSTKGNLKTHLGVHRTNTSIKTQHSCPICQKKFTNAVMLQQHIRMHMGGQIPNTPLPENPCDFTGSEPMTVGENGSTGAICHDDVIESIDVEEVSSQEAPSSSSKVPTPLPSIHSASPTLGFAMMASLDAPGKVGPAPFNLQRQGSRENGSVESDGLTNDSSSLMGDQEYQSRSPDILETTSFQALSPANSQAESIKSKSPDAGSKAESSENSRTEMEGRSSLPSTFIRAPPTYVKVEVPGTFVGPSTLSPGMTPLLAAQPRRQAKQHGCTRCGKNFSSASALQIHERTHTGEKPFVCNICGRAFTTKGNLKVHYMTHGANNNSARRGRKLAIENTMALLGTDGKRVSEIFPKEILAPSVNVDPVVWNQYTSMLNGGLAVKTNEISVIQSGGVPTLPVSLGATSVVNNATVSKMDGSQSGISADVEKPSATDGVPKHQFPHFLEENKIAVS
Technique: universal PBM
Form: double-stranded DNA, one strand shown
Medium: in vitro
Concentration: 600 nM
Setting: 8-mer, flanks averaged, mean of replicates
Direction: higher = stronger binding
Endpoint: E-score
ACACCTAA: 0.121
CACCGGTA: -0.204
AAAAGAAG: 0.188
GTTCGCCA: -0.0415

Other studies, line by line
IRF7 S471D/S472D/S475D/S476D/S477D/S483D/S484D/S487D full length, phosphomimetic: Interferon regulatory factor 7, full length, phosphomimetic (IRF7, Homo sapiens, UniProt Q92985, residues 1-503, S471D/S472D/S475D/S476D/S477D/S483D/S484D/S487D)
Sequence of UniProt Q92985 (whole entry, unmodified, looked up): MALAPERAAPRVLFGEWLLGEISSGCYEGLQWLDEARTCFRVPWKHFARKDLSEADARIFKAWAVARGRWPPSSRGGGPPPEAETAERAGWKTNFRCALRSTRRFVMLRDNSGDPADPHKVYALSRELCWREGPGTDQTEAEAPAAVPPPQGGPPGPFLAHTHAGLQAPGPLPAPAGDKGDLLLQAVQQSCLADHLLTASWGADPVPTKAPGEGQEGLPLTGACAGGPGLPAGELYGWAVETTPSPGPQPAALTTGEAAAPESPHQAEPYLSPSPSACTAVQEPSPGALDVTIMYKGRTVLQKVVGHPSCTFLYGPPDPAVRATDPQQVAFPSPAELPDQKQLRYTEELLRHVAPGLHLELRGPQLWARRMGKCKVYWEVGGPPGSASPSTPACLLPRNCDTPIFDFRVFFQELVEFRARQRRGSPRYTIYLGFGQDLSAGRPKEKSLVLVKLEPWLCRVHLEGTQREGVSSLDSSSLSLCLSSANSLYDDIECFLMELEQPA
GCCTAGCACAACGGTATCGGTTTCGGGACGTGCTAGGTCTTGATTCGCTTGACGCTGCTG
fitted relative affinity (IRF7 S471D/S472D/S475D/S476D/S477D/S483D/S484D/S487D full length, phosphomimetic; protein-binding microarray; double-stranded DNA, one strand shown, in vitro; 2200 nM top, 60-bp whole probe, added: salmon DNA 0.4 mg/ml; baseline: random background probes, higher = stronger binding): 4.3 z-score

PhoQ, residues 284 288 289 292 302 303 GTAMQF
fold induction (PhoP, residues 12 14 15 18 19 TQALL (Escherichia coli, UniProt P23836); Sort-seq, refers to: YFP reporter; E. coli; PhoQ-PhoP variant library, added: 10 µM Mg2+; baseline: high Mg2+ state, higher = stronger signaling): 1.65

GCCTAGCACGAACATTTCCTTTACATTCCGTGCTAGGTCTTGATTCGCTTGACGCTGCTG
fitted relative affinity (IRF7 S471D/S472D/S475D/S476D/S477D/S483D/S484D/S487D full length, phosphomimetic; protein-binding microarray; double-stranded DNA, one strand shown, in vitro; 2200 nM top, 60-bp whole probe, added: salmon DNA 0.4 mg/ml; baseline: random background probes, higher = stronger binding): 2.09 z-score

GCCTAGCACTCATCTTTTCATTTTCTACTGTGCTAGGTCTTGATTCGCTTGACGCTGCTG
fitted relative affinity (IRF7 S471D/S472D/S475D/S476D/S477D/S483D/S484D/S487D full length, phosphomimetic; protein-binding microarray; double-stranded DNA, one strand shown, in vitro; 2200 nM top, 60-bp whole probe, added: salmon DNA 0.4 mg/ml; baseline: random background probes, higher = stronger binding): 3.62 z-score

Excerpt of the above (series 1):
AGCTGGGC: -0.126
CTACCAGA: -0.199
